Experimental data collected from several papers.
“And” joins repeats or separate records; there may be more than shown. ± marks the error that the study gave.
HDAC6: Protein deacetylase HDAC6 (HDAC6, Homo sapiens, UniProt Q9UBN7)
TNKS2: Poly [ADP-ribose] polymerase tankyrase-2 (TNKS2, Homo sapiens, UniProt Q9H2K2)
AGTR1: Type-1 angiotensin II receptor (AGTR1, Homo sapiens, UniProt P30556)
SPHK2: Sphingosine kinase 2 (SPHK2, Homo sapiens, UniProt Q9NRA0)
HTR1D: 5-hydroxytryptamine receptor 1D (HTR1D, Homo sapiens, UniProt P28221)
Uridine nucleoside ribohydrolase: Uridine nucleoside ribohydrolase (Trichomonas vaginalis, UniProt A2FTT0)
MMP2: 72 kDa type IV collagenase (MMP2, Homo sapiens, UniProt P08253)
Alpha-amylase: Alpha-amylase (Bos taurus, UniProt Q3MHH8)

The inhibition of `O=C(Nc1ccc(C(F)F)cc1)[C@H](CC1CCCCC1)Nc1nn2c(=O)ccnc2s1` is reported as -12% (Serine/threonine-protein phosphatase (Escherichia phage lambda, UniProt P03772); enzyme activity, inhibitor; 10 µM).
`C=CC(=O)Nc1cc(-c2nn(C3CCN(CCNC(=O)[C@H](C)CCC45CC6CC(CC(C6)C4)C5)CC3)c3ncnc(N)c23)ccc1Oc1ccccc1` gave an inhibition of 7.6% (Diacylglycerol kinase eta (DGKH, Homo sapiens, UniProt Q86XP1); inhibitor, KiNativ profiling; biochemical; 2 µM).
The inhibition of `Cc1c(OS(=O)(=O)Oc2ccc3ccccc3c2)cccc1C(=O)NO` is reported as 37% (HDAC6; enzyme activity, inhibitor, fluorescence; 10 µM).
`N#Cc1c(Nc2ccccc2C(F)(F)F)s[nH]c1=O` has an inhibition of 31% (TNKS2; enzyme activity, inhibitor; 10 µM).
With `CO[C@@H](C)c1c(NC(=O)Nc2cnc(-n3nccn3)c(C(F)(F)F)c2)cnc2sc(C)nc12` the inhibition was -6.6% (AGTR1; ligand displacement, radioligand; 10 µM).
The inhibition of `CCn1cc(-c2cccc(C(F)(F)F)c2)c2sc(C(=N)NC3CCS(=O)(=O)CC3)cc2c1=O` is reported as 99% (Bromodomain-containing protein 9 (BRD9, Homo sapiens, UniProt Q9H8M2); protein-protein interaction, inhibitor, AlphaScreen; 1 µM).
With `O=C(Nc1ccccc1)C12CC3CC(C1)CC(n1cnc([N+](=O)[O-])n1)(C3)C2` the translation activity was 138% and 105% (Trypanosoma cruzi; reporter mRNA translation, inhibitor, measured: Renilla luciferase mRNA; cell-free extract; concentration not given, test 2; baseline: positive over negative control).
`Cc1cccc(O[C@H]2CCC[C@@H](C(C)CNCc3ccncc3)C2)c1` (relative stereo) has an inhibition of 1% (SPHK2; enzyme activity, inhibitor; 1 µM).
With `Brc1ccccc1-c1nnc(CSc2nnnn2-c2ccccc2)o1` the inhibition was -5% (HTR1D; ligand displacement, radioligand; 10 µM).
With `CS(=O)(=O)Nc1cccc(-c2csc3cnc(Nc4ccc(N5CCN(CCCCCOc6cccc7c6C(=O)N(C6CCC(=O)NC6=O)C7=O)CC5)cc4)nc23)c1` (centres unmarked) the inhibition was -15.7% (Mixed lineage kinase domain-like protein (MLKL, Homo sapiens, UniProt Q8NB16); probe labelling, inhibitor, KiNativ chemoproteomics; MOLT-4; 1 µM).
`COC(=O)c1cccc2c1NC(=O)C21CC(NC(=O)OC(C)(C)C)C(=O)O1` (centres unmarked) gave an inhibition of 54.4% (D-3-phosphoglycerate dehydrogenase (PHGDH, Homo sapiens, UniProt O43175); enzyme activity, inhibitor; 25 µM).
`Cc1ccnc(OC[C@H]2CN(CCN3CCc4ccccc43)CCO2)c1` has an inhibition of 22.9% (HTR1D; radioligand binding; concentration not given, added: [3H]5-CT).
The translation activity of `CCCn1ncc(CN2CCCC(C(=O)c3cccc(OC(C)C)c3)C2)c1C` (centres unmarked) is reported as 92.7% (Trypanosoma cruzi; reporter mRNA translation, inhibitor, measured: Renilla luciferase mRNA; cell-free extract; concentration not given, test 2; baseline: positive over negative control).
With `COc1ccc(CN2CC3CCCCN3C2=O)cc1` (centres unmarked) the inhibition was 57.2% (Uridine nucleoside ribohydrolase; inhibitor, 19F NMR jump dilution; 2 µM, 10-fold dilution).
With `CC[C@H](C)[C@@H]1NC(=O)[C@H](Cc2ccccc2C(F)(F)F)NC(=O)CCSCc2cccc(n2)CSCCCNC(=O)[C@H](CCCCCC(=O)O)NC1=O` the inhibition was 15% (HDAC6; enzyme activity, inhibitor, fluorogenic; 30 µM).
With `CN(Cc1ccc(/C=C/C(=O)NO)cc1)CC12CC3CC(CC(C3)C1)C2` the inhibition was -3% (somatostatin receptor; radioligand binding, radioligand displacement; 0.05 µM, added: agonist radioligand 50 nM).
With `CN1CCN(CC(=O)c2ccccc2)C1=O` the inhibition was 83.1% (Uridine nucleoside ribohydrolase; 19F NMR; 100 µM, added: 0.01% Triton X-100).
The inhibition of `O=C(CN1CCO[C@@H](COc2cccc(Cl)c2)C1)N1CCc2ccccc21` is reported as 20.9% (HTR1D; radioligand binding; concentration not given, added: [3H]5-CT).
`Cc1cc(C(=O)NCCNC(=O)c2cccc(COc3ccccc3C(N)=O)c2)n[nH]1` gave an inhibition of 100% (TNKS2; enzyme activity, inhibitor; 50 nM).
The inhibition of `C[Si](C)(C)C[C@@H](CN)CC(=O)O` is reported as -10% (Neuropeptide Y receptor type 2 (NPY2R, Homo sapiens, UniProt P49146); ligand displacement, radioligand; 75 µM).
`CCc1ccc(N2CCC(O)C2)cc1` (centres unmarked) has an inhibition of 34.7% (Uridine nucleoside ribohydrolase; 19F NMR; 100 µM, added: 0.01% Triton X-100).
For `COCC(=O)N1CCc2cc(-c3csc(NC(=O)c4cc(OC)cc(OC)c4)n3)ccc21`, the inhibition was -4% (phorbol ester receptor, mouse; radioligand binding; 10 µM).
For `Cc1cccnc1-c1ccc(C(N)=O)cc1`, the inhibition was 100% (Uridine nucleoside ribohydrolase; 19F NMR; 50 µM, added: 0.01% Triton X-100).
The inhibition of `C/C=C/C(=O)Nc1ccc2nc(NCCCCCN(C)C)nc(NCCCCCCN(C)C)c2c1` is reported as 47% (Histone-lysine N-methyltransferase PRDM9 (PRDM9, Homo sapiens, UniProt Q9NQV7); enzyme activity, inhibitor, radiometric; 10 µM).
With `CC(=O)C12NC(C)(C)CC1(C)C(=O)C1=C2c2c(c3c4n2C(C)(C)CC2=C4C4(CC(C)(C)NC(C)(C4)C2=O)CC3(C)C)C(=O)C(C)(C)N1` (single isomer, unassigned; (-)) the inhibition was 16.96 ± 0.04% (Neuronal acetylcholine receptor subunit alpha-7 (CHRNA7, Homo sapiens, UniProt P36544); ion current, antagonist, whole-cell patch clamp; HEK293T; 10 µM).
With `O=C(CCCc1ccc2c(c1)OCCO2)NCCNC(=O)Cn1c(=O)[nH]c(=O)c2ccccc21` the inhibition was 0% (TNKS2; enzyme activity, inhibitor; 5 nM).
The inhibition of `CC(=O)Nc1ccccc1-c1ccc(O)cc1` is reported as 100% (Uridine nucleoside ribohydrolase; 19F NMR; 50 µM).
`CN(C)C/C=C/C(=O)Nc1ccc2nc(NCCCCCN(C)C)nc(NCCCCCCN(C)C)c2c1` has an inhibition of 48% (N-lysine methyltransferase SMYD2 (SMYD2, Homo sapiens, UniProt Q9NRG4); enzyme activity, inhibitor, radiometric; 10 µM).
`CCC(=O)N(C)c1ccc(Cl)c(Cl)c1` gave an inhibition of under 10% (AGTR1; ligand displacement, radioligand; 10 µM).
With `O=C1c2sc(-c3ccc(N4CCC(F)C4)nc3F)nc2CCN1c1cccnc1` (centres unmarked) the inhibition was 4% (GABA-gated chloride channel; radioligand binding; 1 µM, added: antagonist radioligand).
For `Cc1cccnc1-c1cccc(C#N)c1`, the inhibition was 100% (Uridine nucleoside ribohydrolase; 19F NMR; 50 µM).
With `O=C(CNc1nc(NNC(=O)c2ccc(Nc3nc(Nc4ccc(C(=O)NNc5nc(NCC(=O)NO)nc(N6CCCCC6)n5)cc4)nc(Nc4ccc(C(=O)NNc5nc(NCC(=O)NO)nc(N6CCCCC6)n5)cc4)n3)cc2)nc(N2CCCCC2)n1)NO` the inhibition was 86% (MMP2; enzyme activity, inhibitor, fluorescence; 0.01 µg/mL).
The inhibition of `Cn1cc(-c2ccc(C(N)=O)cc2)cn1` is reported as 100% (Uridine nucleoside ribohydrolase; 19F NMR; 100 µM, added: 0.01% Triton X-100).
`N=C(N)NCCCC(NC(=O)C(CC(=O)NO)Cc1ccc2ccccc2c1)C(=O)NC(Cc1c[nH]c2ccccc12)C(=O)NC(CCC(=O)O)C(N)=O` (centres unmarked) gave an inhibition of 22% (MMP2; 1 µM).
For `CCn1cc(C(=O)O)c(=O)c2c(N)c(F)c(NC3CCCCC3)cc21`, the inhibition was 6% (Lymphokine-activated killer T-cell-originated protein kinase (PBK, Homo sapiens, UniProt Q96KB5); kinase activity; 0.1 µM, added: ATP at Km).
With `C=CC(=O)N1Cc2nc(-c3cc(-c4cc(Cl)cnc4Cl)c(F)cc3F)n(-c3ccncn3)c2C1` the inhibition was -14.4% (SPHK2; cell-free assay, inhibitor; 1 µM).
The inhibition of `Cc1ncc(/C=N/NC(=O)c2cc3c(s2)CCCC3)cn1` is reported as 30.9% (1-deoxy-D-xylulose-5-phosphate synthase (dxs, Deinococcus radiodurans, UniProt Q9RUB5); enzyme activity, inhibitor; 120 µM).
For `O=C(CC1CC2CCC1C2)NCCNC(=O)Cn1c(=O)[nH]c(=O)c2ccccc21` (centres unmarked), the inhibition was 59% (TNKS2; enzyme activity, inhibitor; 0.5 µM).
With `NC(=O)C[C@H]1CCc2sc3ncnc(O[C@H]4CC[C@H](N5CCOCC5)CC4)c3c21` the inhibition was 0% (Tau-tubulin kinase 2 (TTBK2, Homo sapiens, UniProt Q6IQ55); enzyme activity, inhibitor; 10 µM).
`CC1=NN(c2cccc(F)c2)C(=O)/C1=N\Nc1ccc(S(N)(=O)=O)cc1` gave an inhibition of 19.2% (Alpha-amylase; enzyme activity, inhibitor, glucose oxidase; 200 µg/mL, added: dextrin).
The inhibition of `O=C(CNc1nc(Cl)nc(NNC(=O)c2ccc(Nc3nc(Nc4ccc(C(=O)NNc5nc(Cl)nc(NCC(=O)NO)n5)cc4)nc(Nc4ccc(C(=O)NNc5nc(Cl)nc(NCC(=O)NO)n5)cc4)n3)cc2)n1)NO` is reported as 15% (MMP2; enzyme activity, inhibitor, fluorescence; 1e-05 µg/mL).
The inhibition of `CC(=O)Nc1ccc(F)cc1-c1ccncc1` is reported as 100% (Uridine nucleoside ribohydrolase; 19F NMR; 100 µM, added: 0.01% Triton X-100).
`CC1=NN(c2ccccc2F)C(=O)/C1=N\Nc1ccc(S(N)(=O)=O)cc1` gave an inhibition of 16.7% (Alpha-amylase; enzyme activity, inhibitor, glucose oxidase; 500 µg/mL, added: dextrin).
The inhibition of `Cl.Cl.N[C@@H](C(=O)N1CCCC1)C1CCN(c2nccc3c(-c4ncc(Cl)cc4Cl)cccc23)CC1` is reported as -0.639% and 5.75% and 2.86% (Protein-arginine deiminase type-4 (PADI4, Homo sapiens, UniProt Q9UM07); enzyme activity, inhibitor; 4.89 nM, added: Ca2+ 0.4 mM).

A few entries again:
With `C=CC(=O)N1Cc2nc(-c3cc(-c4cc(Cl)cnc4Cl)c(F)cc3F)n(-c3ccncn3)c2C1` the inhibition was -14.4% (SPHK2; cell-free assay, inhibitor; 1 µM).
With `O=C1c2sc(-c3ccc(N4CCC(F)C4)nc3F)nc2CCN1c1cccnc1` (centres unmarked) the inhibition was 4% (GABA-gated chloride channel; radioligand binding; 1 µM, added: antagonist radioligand).
With `CN1CCN(CC(=O)c2ccccc2)C1=O` the inhibition was 83.1% (Uridine nucleoside ribohydrolase; 19F NMR; 100 µM, added: 0.01% Triton X-100).
With `COc1ccc(CN2CC3CCCCN3C2=O)cc1` (centres unmarked) the inhibition was 57.2% (Uridine nucleoside ribohydrolase; inhibitor, 19F NMR jump dilution; 2 µM, 10-fold dilution).
For `CCn1cc(C(=O)O)c(=O)c2c(N)c(F)c(NC3CCCCC3)cc21`, the inhibition was 6% (Lymphokine-activated killer T-cell-originated protein kinase (PBK, Homo sapiens, UniProt Q96KB5); kinase activity; 0.1 µM, added: ATP at Km).
The inhibition of `Cc1c(OS(=O)(=O)Oc2ccc3ccccc3c2)cccc1C(=O)NO` is reported as 37% (HDAC6; enzyme activity, inhibitor, fluorescence; 10 µM).
